Published values pooled from the literature.
Protocols differ between the studies behind these lines. “And” joins repeats or separate records; there may be more than shown. ± marks the error that the study gave.

| Structure (SMILES) | assay | system | conditions | scale | quantity | value |
| --- | --- | --- | --- | --- | --- | --- |
| COc1cc(NC(=O)c2ccc3cc(C(=N)N)ccc3c2)cc(OC(C)C)c1 |  | octanol/buffer | pH 11, urokinase ligand set |  | logP | 3.16 |
| Cc1cnc(N2CC3(CCOCC3)C2)c(C(=O)Nc2ccc(C(=O)N3CCc4cc(C(=O)Nc5c(C)cccc5F)sc4-c4ccccc43)cc2)c1 |  | neonatal rat, lung | inhaled, dose not given |  | residence time | ≤ 120 h |
| C=CCN1CC(=O)N2[C@@H](Cc3ccc(O)cc3F)C(=O)N(Cc3cccc(N4CC(N5CCN(CC)CC5)C4)n3)C[C@@H]2N1C(=O)NCc1ccccc1 |  | advanced solid tumour patients | oral, 20 mg twice daily, any grade, dose-escalation |  | treatment-related nausea | 66.7% |
| Cc1cc(NC2CCN(C(=O)OC3CCN(C(=O)/C=C/CN(C)C)C3)CC2)n2ncc(C(C)C)c2n1 (centres unmarked) |  | patients with advanced solid tumours | dose not given, QD arm, any grade |  | patients with Hyponatremia | 2% |
| OC[C@H]1O[C@@H](c2ccc(F)c(Cc3cc4ccccc4s3)c2)[C@H](O)[C@@H](O)[C@@H]1O |  | Japanese patients, type 1 diabetes | oral, 50 mg/day, onset day 5 | baseline: patients | hypoglycaemia-related adverse event | 3% |
| CCN1/C(=C/C(C)=O)Sc2ccc(F)cc21 |  | cynomolgus monkey | oral, 30 mg/kg, 2 h post-dose |  | mean blood pressure | 87 ± 4 mmHg |
| NC1(C(=O)N[C@@H](CCO)c2ccc(Cl)cc2)CCN(c2nc[nH]c3nccc2-3)CC1 |  | human, plasma | oral, 400 mg twice daily, together with: enzalutamide 160 mg daily |  | dose-normalised Cmax | 563 ng/mL and 447 ng/mL and 369 ng/mL and 586 ng/mL and 889 ng/mL |
| CC1(CNC(=O)[C@H](CN)NC(=O)c2ccc(-c3ccc(Br)cc3)cc2)NC(=O)NC1=O (some centres unmarked) |  | octanol/buffer | pH 11 |  | logP | 0.61 |
| C[C@H](O)c1cc(C(=O)N[C@@H](C)Cn2ccc(-c3ccc(C#N)c(Cl)c3)n2)n[nH]1 |  | human, fasted | oral, 300 mg 14C-darolutamide solution, geometric mean |  | Vd/F | 60600 mL |
| CC(=O)c1ccc([C@H]2C[C@@]3(C)[C@@H](CC[C@@]3(O)C(F)(F)C(F)(F)F)[C@@H]3CCC4=CC(=O)CCC4=C32)cc1 |  | human, serum pool | oral, 200 mg, day 1, 48 h |  | serum concentration | not detected |
| N#CCC1CCN(c2nc(Nc3ccc(N4CCC(O)CC4)cc3)c3c(=O)[nH]ncc3n2)CC1 |  | human, plasma | oral, 80 mg once daily, day 1 |  | AUC(0-24 h) | 2120 ng·h/mL |
| CCO[C@H]1CCN(Cc2c(OC)cc(C)c3[nH]ccc23)[C@H](c2ccc(C(=O)O)cc2)C1 |  | PNH patients, active haemolysis | oral, 25 mg, 4 weeks, treatment |  | incidence of dyspepsia | 0% |
| O=S(=O)(O)Oc1cc(O)cc(/C=C/c2ccc(O)cc2)c1 |  | human, cerebrospinal fluid | dose not given, mean |  | CSF concentration | not detected |
| CCN1CCN(Cc2ccc(Nc3ncc(F)c(-c4cc(F)c5nc6n(c5c4)[C@H](C)CCC6)n3)nc2)CC1 |  | human, plasma | 300 mg single dose, mean |  | Vd/F | 2.32e+06 mL |
| N#Cc1ccc2c(c1)[C@H]1CCCN(C(=O)c3ccc4[nH]cnc4c3)[C@H]1C2 |  | human | 160 mg, day 7 | baseline: baseline | cortisol level change | -203 nmol/L |
| COc1ccc2[nH]c([S+]([O-])Cc3ncc(C)c(OC)c3C)nc2c1 (centres unmarked) |  | healthy Chinese volunteers CYP2C19 NM, plasma | oral, 20 mg single dose, enteric-coated tablets |  | AUC(0-t) | 457 ± 337 ng·h/mL |
| CS(=O)(=O)N(CC(=O)Nc1ccccc1C(=O)N1CCOCC1)c1ccc(Cl)cc1 |  | octanol/buffer | pH 11, known kinase inactives set |  | logP | 1.77 |
| COc1ncc(-c2nc3c(n2C(C)C)[C@H](c2ccc(Cl)cc2)N(c2cc(Cl)cn(C)c2=O)C3=O)c(OC)n1 |  | human patients, plasma | oral, 15 mg, 0-24 h, low-dose arm, cycle 2 day 1 |  | AUC(0-t) geometric mean | 1570 ng·h/mL |
| O=C(Nc1nc2cccc(-c3ccc(CN4CCS(=O)(=O)CC4)cc3)n2n1)C1CC1 | measured: ear and labyrinth disorders | human rheumatoid arthritis patients | oral, 75 mg once daily, 4 weeks, regardless of relatedness |  | treatment-emergent adverse events | 0% |
| Cc1nc(C(=O)N2CCC[C@H]2C(=O)N[C@@H](CCC2CCCCC2)C(=O)N[C@@H](CC(C)C)C(=O)NC(C)(C)C(=O)N[C@@H](CC(C)C)C(=O)N[C@@H](CC(C)C)C(=O)NC(C)(C)C(=O)NC(C)(C)C(=O)NCCC(=O)NC2(CN(C)C)CCC2)co1 | circular dichroism | phosphate buffer | pH 7.4, 20 °C |  | alpha-helix content | 26.2% |
